Results pooled from the literature.
Each line is one published result; not all experiments were run side by side. ± marks the error that the study gave.

COc1ccnc(C[S+]([O-])c2nc3ccc(OC(F)F)cc3[nH]2)c1OC (stereo not drawn) — Cmax (human, CYP2C19 intermediate metabolizers, plasma; oral, 40 mg/day, day 5): 9570 ± 420 ng/mL
CC(C)CN(C[C@@H](O)[C@H](Cc1ccccc1)NC(=O)O[C@H]1CCOC1)S(=O)(=O)c1ccc(N)cc1 — Cmax (HPLC; human, plasma; oral, fosamprenavir 700 mg twice daily, with: ritonavir 100 mg twice daily): 3960 ng/mL
O=C(Nc1c(Cl)cncc1Cl)c1ccc(OC(F)F)c(OCC2CC2)c1 — Cmax (human adults, ≥18 years, plasma; topical, 0.3% cream once daily, day 15): 3.72 ng/mL
CC#CC(=O)N1CC[C@@H](n2c(=O)n(-c3ccc(Oc4ccccc4)cc3)c3c(N)ncnc32)C1 — Cmax (human, fasting, plasma; oral, 320 mg once daily, cycle 1 day 28): 971 ng/mL
CC(=O)c1c(C)c2cnc(Nc3ccc(N4CCNCC4)cn3)nc2n(C2CCCC2)c1=O — Cmax (human patients, plasma; oral, 125 mg once daily, steady state, free base with meal, geometric mean, with: inavolisib + letrozole): 90.7 ng/mL
CC(C)[C@@H](CS(=O)(=O)C(C)C)N1C(=O)[C@@](C)(CC(=O)O)C[C@H](c2cccc(Cl)c2)[C@H]1c1ccc(Cl)cc1 — Cmax (human, plasma; oral, 60 mg, old tablet, fasted, geometric LS mean): 337 ng/mL
CN[C@@H]1COc2c(S(=O)(=O)NC(=O)Nc3c4c(cc5c3CCC5)CCC4)cnn2C1 — Cmax (human; oral, 600 mg, fasted, geometric LS mean): 27600 ng/mL
CC(C)(Sc1ccncc1-c1ccc(C#N)c2ccccc12)C(=O)O — Cmax (human, plasma; oral, 10 mg, with: febuxostat 40 mg): 15.5 ng/mL
Cc1nc(-c2ccc(OCC(C)C)c(C#N)c2)sc1C(=O)O — Cmax (human male, plasma; oral, 40 mg once daily, day 7 or 21, arithmetic mean): 798 ng/mL
CC(=O)O[C@H]1C(=O)[C@@]2(C)[C@H]([C@H](OC(=O)c3ccccc3)[C@]3(O)C[C@H](OC(=O)[C@H](O)[C@@H](NC(=O)c4ccccc4)c4ccccc4)C(C)=C1C3(C)C)[C@]1(OC(C)=O)CO[C@@H]1C[C@@H]2O — Cmax (human, plasma; intravenous, 175 mg/m², cycle 1, no ritonavir, with: carboplatin): 4700 ± 600 nM
NC(=S)NN=Cc1ncccc1N — Cmax (human, serum; oral, 100 mg): 2400 nM
CN(Cc1cnc2nc(N)nc(N)c2n1)c1ccc(C(=O)N[C@@H](CCC(=O)O)C(=O)O)cc1 — Cmax (human, both sexes, plasma; oral, 15 mg, day 1, alone, arithmetic mean): 423 ng/mL
COc1cc2ncnc(Nc3ccc(F)c(Cl)c3)c2cc1OCCCN1CCOCC1 — Cmax (human, plasma; oral, 250 mg, with: vorinostat 400 mg): 295 ± 253 ng/mL
Cc1[nH]c2ccccc2c1CCNCc1ccc(/C=C/C(=O)NO)cc1 — Cmax (human; 20 mg, day 1, with: IM 400 mg): 12.6 ng/mL
Cc1cc(C)c2c(c1)[C@@H](N(Cc1cc(C(F)(F)F)cc(C(F)(F)F)c1)c1nnn(C)n1)CCCN2C[C@H]1CC[C@H](C(=O)O)CC1 — Cmax (human, plasma; oral, 600 mg once daily, steady state, geometric mean): 1330 ng/mL
Cc1nc2cccc(N)c2c(=O)n1C1CCC(=O)NC1=O (stereo not drawn) — Cmax (healthy adult human, plasma; oral, 3 mg, geometric mean, with: itraconazole 200 mg once daily): 66.3 ng/mL
N[C@@H](Cc1ccc(O)c(O)c1)C(=O)O — Cmax (human, plasma; oral, 150 mg single, geometric LS mean, with: 37.5 mg carbidopa): 2440 ng/mL
CC(C)(/C=C(\C#N)C(=O)N1CCC[C@@H](n2nc(-c3ccc(Oc4ccccc4)cc3F)c3c(N)ncnc32)C1)N1CCN(C2COC2)CC1 — Cmax (human; 400 mg single dose, 2 h): 101 ng/mL
C=C(C)[C@@H]1CC[C@]2(NCCN3CCS(=O)(=O)CC3)CC[C@]3(C)[C@H](CC[C@@H]4[C@@]5(C)CC=C(C6=CC[C@@](CF)(C(=O)O)CC6)C(C)(C)[C@@H]5CC[C@]43C)[C@@H]12 — Cmax (human, HIV-1 treatment-naive, plasma; oral, 200 mg single with food, day 1): 940 ng/mL
Cc1ccc(C(=O)NC2CC2)cc1-n1ncc(C(=O)c2cccc(C#N)c2)c1N — Cmax (human, plasma; oral, 14 mg, geometric mean, with: azithromycin 500 mg daily for three days): 123 ng/mL
NS(=O)(=O)OC[C@@H]1C[C@@H](n2ccc3c(N[C@H]4CCc5ccccc54)ncnc32)C[C@@H]1O — Cmax (human; intravenous, 8 mg/m^2, day 1): 59.1 ng/mL
Nc1ccc(-c2nc([C@H]3CCc4cc(-c5cc(Cl)ccc5-n5cnnn5)cc(=O)n43)c(F)[nH]2)c(F)n1 — Cmax (human, plasma; oral, 150 mg once daily, fed, day 14): 2000 ng/mL
CC[C@H](C)[C@H](NC(=O)[C@H](CC(C)C)NC(=O)[C@H](Cc1c[nH]c2ccccc12)NC(=O)[C@H](C)NC(=O)[C@@H](NC(=O)[C@H](Cc1ccccc1)NC(=O)[C@H](CC(=O)O)NC(=O)[C@H](CCCNC(=N)N)NC(=O)[C@H](C)NC(=O)[C@H](C)NC(=O)[C@H](CC(C)C)NC(=O)[C@H](C)NC(=O)[C@H](CC(=O)O)NC(=O)[C@H](CC(C)C)NC(=O)[C@@H](NC(=O)[C@@H](NC(=O)[C@H](C)NC(=O)[C@H](CC(C)C)NC(=O)[C@H](CCC(=O)O)NC(=O)[C@H](CO)NC(=O)[C@H](CO)NC(=O)[C@H](Cc1ccccc1)NC(=O)[C@@H](NC(=O)CNC(=O)[C@H](CCC(=O)O)NC(=O)CNC(=O)[C@@H](N)Cc1cnc[nH]1)[C@@H](C)O)[C@@H](C)O)[C@@H](C)CC)[C@@H](C)CC)C(=O)N[C@@H](C)C(=O)N[C@H](C(=O)N[C@@H](CCCCN)C(=O)N[C@H](C(=O)N[C@H](C(=O)N[C@@H](CC(=O)O)C(=O)N[C@@H](CCCCN)C(=O)N[C@@H](CCCCN)C(=O)N[C@@H](CCCCN)C(=O)N[C@@H](CCCCN)C(=O)N[C@@H](CCCCN)C(=O)N[C@@H](CCCCN)C(N)=O)[C@@H](C)O)[C@@H](C)CC)[C@@H](C)O — Cmax (immunoaffinity LC-MS/MS; healthy human subjects, plasma; subcutaneous, 10 mg once weekly, day 36 after 6 doses, steady state, geometric mean): 0.432 nM
O=C(c1ccc(OCCN2CCCCC2)cc1)c1c(-c2ccc(O[C@@H]3O[C@H](C(=O)O)[C@@H](O)[C@H](O)[C@H]3O)cc2)sc2cc(O)ccc12 — Cmax (human, plasma; oral, 60 mg raloxifene, acute green tea): 57.9 nM
C#C[C@]1(O)CC[C@H]2[C@@H]3CCC4=CC(=O)CC[C@@H]4[C@H]3CC[C@@]21CC — Cmax (healthy female human, plasma; oral, 1 Portia tablet, with: no ritlecitinib): 2.9 ng/mL
CN1CC[C@H](c2c(O)cc(O)c3c(=O)cc(-c4ccccc4Cl)oc23)[C@H](O)C1 — Cmax (human patients, phase I, plasma; intravenous, 70 mg/m^2, cycle 1, mean, with: doxorubicin 60): 2220 nM
CC(C)c1nc(N(C)S(C)(=O)=O)nc(-c2ccc(F)cc2)c1/C=C/[C@@H](O)C[C@@H](O)CC(=O)O — Cmax (humans, plasma; oral, 20 mg, geometric mean, with: fenebrutinib 200 mg twice daily): 43.1 ng/mL
O=C(c1nc2n(n1)[C@H](c1ccccc1)C[C@@H]2F)C1CC1 — Cmax (humans, plasma; oral, 75 mg single dose, high-fat meal): 946 ng/mL
CN1CC(=O)N2[C@H](c3ccc4c(c3)OCO4)c3[nH]c4ccccc4c3C[C@@H]2C1=O — Cmax (human; oral, 40 mg, free combination, EU-sourced, geometric mean, with: macitentan 10 mg): 598 ng/mL
O=C(/C=C/c1cccc(S(=O)(=O)Nc2ccccc2)c1)NO[C@@H]1O[C@H](C(=O)O)[C@@H](O)[C@H](O)[C@H]1O — Cmax (human severe liver dysfunction, plasma; intravenous, 400 mg/m^2, 30 min infusion, cycle 1 day -7, with: belinostat 400 mg/m^2 iv): 72800 ng/mL
O=C1Nc2ccc(Cl)cc2[C@@](C#CC2CC2)(C(F)(F)F)O1 — Cmax (healthy human, serum; oral, 400 mg single dose): 660 ± 400 ng/mL
CC(C)c1nc(CN(C)C(=O)N[C@H](C(=O)N[C@@H](Cc2ccccc2)C[C@H](O)[C@H](Cc2ccccc2)NC(=O)OCc2cncs2)C(C)C)cs1 — Cmax (HIV/HCV coinfected humans, plasma; oral, dose not given, steady-state median, with: lopinavir/ritonavir twice daily): 1100 ng/mL
Cc1nc(-c2ccc(OCC(C)C)c(C#N)c2)sc1C(=O)O — Cmax (human, plasma; oral, 40 mg, with: verinurad 10 mg): 628 ng/mL
COc1cc2nccc(Oc3ccc(NC(=O)NC4CC4)c(Cl)c3)c2cc1C(N)=O — Cmax (human, plasma; oral, 5 mg, arithmetic mean, with: ketoconazole 400 mg/day): 54.6 ng/mL
Cc1ccc(NC(=O)c2ccc(CN3CCN(C)CC3)cc2)cc1Nc1nccc(-c2cncc(-c3oncc3C)c2)n1 — Cmax (older healthy human adults, plasma; oral, 175 mg single dose, fed, mean): 6130 ng/mL
CN1C(=O)[C@@H](NC(=O)c2nnc(Cc3ccccc3)[nH]2)COc2ccccc21 — Cmax (human male, plasma; oral, 60 mg twice daily, day 1): 1090 ng/mL
Nc1ccn([C@@H]2O[C@H](CO)[C@@H](O)C2(F)F)c(=O)n1 — Cmax (human cancer patients, plasma; intravenous, 600 mg/m^2, cycle 1 day 1, given alone): 7930 ng/mL
C=C(C)[C@@H]1CC[C@]2(NCCN3CCS(=O)(=O)CC3)CC[C@]3(C)[C@H](CC[C@@H]4[C@@]5(C)CC=C(C6=CC[C@@](CF)(C(=O)O)CC6)C(C)(C)[C@@H]5CC[C@]43C)[C@@H]12 — Cmax (human; oral, 50 mg once daily, day 14, multiple ascending dose): 414 ng/mL
CCCCC1(CCCC)CN(c2ccccc2)c2cc(SC)c(OCC(=O)N[C@@H](C(=O)NCC(=O)O)c3ccccc3)cc2S(=O)(=O)C1 — Cmax (LC-MS/MS; human, plasma; oral, 5 mg, single dose, before breakfast): 0.17 ng/mL
CCN1CCN(Cc2ccc(Nc3ncc(F)c(-c4cc(F)c5nc(C)n(C(C)C)c5c4)n3)nc2)CC1 — Cmax (population PK model; healthy human subjects, plasma; oral, 200 mg single dose): 113 ng/mL
O=C(CCCCCCC(=O)Nc1ccccc1)NO — Cmax (human, serum; oral, 400 mg three times daily, 3 days, with: idarubicin): 1660 nM
CC(C)(C(=O)NCC(F)(F)C(F)(F)F)C(=O)N[C@@H]1C(=O)Nc2ccccc2-c2ccccc21 — Cmax (human, plasma; oral, 20 mg, day 15, with: bevacizumab): 245 ng/mL
CS(=O)(=O)n1cc2c(n1)CN([C@H]1CO[C@H](c3cc(F)ccc3F)[C@@H](N)C1)C2 — Cmax (healthy male human, plasma; oral, 25 mg once weekly, day 15, fasted, geometric mean): 565 nM
CCOc1cc([C@@H](CS(C)(=O)=O)N2C(=O)c3cccc(NC(C)=O)c3C2=O)ccc1O[C@@H]1O[C@H](C(=O)O)[C@@H](O)[C@H](O)[C@H]1O — Cmax (healthy human controls, plasma; oral, 30 mg apremilast, matched to mild impairment): 156 ng/mL
CN(C)[C@@H](CCOc1cccc2ccccc12)c1ccccc1 — Cmax (healthy male humans, plasma; oral, 60 mg, with: udenafil 200 mg): 368 ± 122 ng/mL
CC1(C)CCC(CN2CCN(c3ccc(C(=O)NS(=O)(=O)c4ccc(NCC5CCOCC5)c([N+](=O)[O-])c4)c(Oc4cnc5[nH]ccc5c4)c3)CC2)=C(c2ccc(Cl)cc2)C1 — Cmax (human, plasma; oral, 600 mg, steady state cohort B1.2, with: idasanutlin 150 mg): 1470 ng/mL
CC(=O)c1c(C)c2cnc(Nc3ccc(N4CCNCC4)cn3)nc2n(C2CCCC2)c1=O — Cmax (human patients, plasma; oral, 75 mg/m^2 single dose, day 1): 92 ± 34 ng/mL
CO[C@H]1C[C@@H]2CC[C@@H](C)[C@@](O)(O2)C(=O)C(=O)N2CCCC[C@H]2C(=O)O[C@H]([C@H](C)C[C@@H]2CC[C@@H](OCCO)[C@H](OC)C2)CC(=O)[C@H](C)/C=C(\C)[C@@H](O)[C@@H](OC)C(=O)[C@H](C)C[C@H](C)/C=C/C=C/C=C/1C — Cmax (human, plasma; oral, 30 mg, with: sunitinib 50 mg daily): 121 ng/mL
CC(=O)N1CCN(c2ccc(OCC3COC(Cn4ccnc4)(c4ccc(Cl)cc4Cl)O3)cc2)CC1 (stereo not drawn) — Cmax (healthy male human; oral, 200 mg, single dose alone): 2070 ng/mL
C=CC(=O)Nc1cc(Nc2ncc(C(=O)OC(C)C)c(-c3cn(C)c4ccccc34)n2)c(OC)cc1N(C)CCN(C)C — Cmax (human, fasted; oral, 20 mg single dose, arithmetic mean): 3.3 ng/mL
COc1ccc2nc([S@@+]([O-])Cc3ncc(C)c(OC)c3C)[nH]c2c1 — Cmax (human, CYP2C19 normal metabolizers, plasma; oral, 40 mg/day, day 1): 6230 ± 2840 ng/mL
CC(C)c1nc(N(C)S(C)(=O)=O)nc(-c2ccc(F)cc2)c1/C=C/[C@@H](O)C[C@@H](O)CC(=O)O — Cmax (human, plasma; oral, 20 mg, alone, geometric LS mean): 5.04 ng/mL
O=CC[C@@H](O)[C@H](O)[C@H](O)CO — Cmax (HPLC-fluorescence; human patients, plasma; oral, 30 mg/kg/day, cycle 1): 277000 nM
CC#CC(=O)NCCCC(=O)c1nc(-c2ccc(C(=O)Nc3ccccn3)cc2)c2c(N)nccn12 — Cmax (human, healthy control, plasma; oral, 50 mg acalabrutinib, single, total, geometric mean): 166 ng/mL
